Assay results from different studies.
A part holds a random share of what one study measured. Changes are numbered by the printed parent chain.

Set 1
Target: RNA binding protein fox-1 homolog 2, RRM domain, GST-SBP tag (RBFOX2, Homo sapiens, UniProt O43251-10, residues 100-194)
Technique: RNA Bind-n-Seq
Molecule type: RNA
Matrix: in vitro
Tested at: 365 nM
Setting: natural RNA segment, single round, ends assumed
Baseline: no-protein control
Direction: higher = stronger binding
Quantity: RBNS enrichment (R)
Constant ends, left off below: GGGAGUUCUACAGUCCGACGAUC … UGGAAUUCUCGGGUGCCAA
Residues (chain): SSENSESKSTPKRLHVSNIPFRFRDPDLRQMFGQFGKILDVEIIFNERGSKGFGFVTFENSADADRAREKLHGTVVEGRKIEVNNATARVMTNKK
GGAGGACGCCACUCCGGCCCUUCACCCUUGCCAAGUGAGCUGCUCACAGUGUGGUCAGGGCUGCGCGUGCUGGAGGCCCUCCUGCCUGGGCCUUGUGGGGCAAAUAUUGG: 0.433
GUCUUAAGGACCUUGUGAUUAGUCAAUCAACAAACCACAACACUUCCUAGGACCUGUUGUACUCCGUGUAACUAUAGGUCUGAAUAUUUUCUGGGUGGUGGUGGCAAGGG: 0.542
UGAGUCCUGACUUCCAAGAGAUUUUAGAAUCUAAGCUGGAUAGUACAGACAGGUAUAAAAGAUGGAUGCUAUAGAUAAGCAGGGUGGCUUAGAUACCCAUAAAAUGCAAA: 0.435
UUUUCUCUUGGUUGUAGAGUGGCCCAGAAUUGCAUUCUGAAUGAAUAAAGGUUAAAAAAAAAUCCCCAGUGCAUGUAUUUCAGUUCUCUAAGAUUUUUGGUCUGGCAUUG: 34.9
UCUAUUUCUCCCAACCAAAUCCUCUUAAAGACCCUUUGCUAUGUAGUCUCAUGGUCUAGCAUGCAUCUUGUAGAAACAAGGCAUGCUGGCAGAUUGCAGGGUUGAGAUGU: 0.347
AGACACUGCCGGGCCUCCCUCCCGGGGGCACUGCCUGAAGGCGAGUGUGGGCAUAGCAUUAGCUGCUUCCUCCCCUCCUGGCACCCACUGUGGCCUGGCAUCGCAUCGUG: 0.67
UAUAGGACUCAGUCCUUAGAUGUUCUUUUUAUUUUAAGAAAUAACCUCUUCAAGUUGUAACCGUGGCGGCUUUGUCCAUUACUGUUGCUAUUCUGCACACAUAUCGGAAG: 0.532
UCUGUAGCCCUAACACAUGGGAUGAACGUUUUACUGCUACACCCAGAUUUGUGUUGAACGAAAACAUUGUGGUUUGGAAAGGAGAAUUCAACAAUUAAUAGUUGAAAUUG: 0.411

Set 2
Target: Centromere-binding protein 1, full length, N-terminal tag (CBF1, Saccharomyces cerevisiae, UniProt P17106, residues 1-351)
UniProt P17106, sequence (whole entry, looked up): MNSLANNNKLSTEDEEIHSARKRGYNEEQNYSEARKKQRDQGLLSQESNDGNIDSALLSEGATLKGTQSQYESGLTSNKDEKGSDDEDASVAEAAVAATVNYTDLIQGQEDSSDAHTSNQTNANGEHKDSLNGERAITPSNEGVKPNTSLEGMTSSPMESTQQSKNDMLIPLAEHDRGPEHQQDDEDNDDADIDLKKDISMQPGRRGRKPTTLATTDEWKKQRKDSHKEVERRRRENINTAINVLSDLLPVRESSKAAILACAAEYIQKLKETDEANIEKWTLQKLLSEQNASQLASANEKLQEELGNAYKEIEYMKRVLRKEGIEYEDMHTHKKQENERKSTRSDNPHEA
Technique: protein-binding microarray
Molecule type: double-stranded DNA, one strand shown
Matrix: in vitro
Tested at: 0.8 µM
Setting: whole 60-bp probe, no competitor
Direction: higher = stronger binding
Quantity: fluorescence intensity
Constant ends, left off below: … GTCTTGATTCGCTTGACGCTGCTG
GAAACAGCGCGCGTATTCGTGCGTCGGTAAATTTAG: 473 a.u.
TGTACGAAGCTATCAATCGTGCCTATAGTAGTTAGG: 522 a.u.
CCTAACTACTATAATCACGGATAATAGCTTCGTACA: 578 a.u.
GAATGGTACGGCACCCACGGTACCTTACATTATTAG: 496 a.u.
TGTACGAAGCTATAGGTGGCGATTATAGTAGTTAGG: 504 a.u.
GAATATTCATATTGACACGTAACGCAAAAGAACTAG: 532 a.u.
CTACCCTATACTATTCATGTGAGTGGTAGCATGTTC: 678 a.u.
CCTAACTACTATAGTGACATAATATAGCTTCGTACA: 514 a.u.
GAATTTCAAATCGATGACAGCTGATAGAAAGCGTAG: 628 a.u.
CCTAACTACTATAGCAATGTCACATAGCTTCGTACA: 511 a.u.
GAAACGAAAATCTATCAGCTGAACATCTAGACTTAG: 594 a.u.
GAATTCTGATCCAACTGATGCATCAGTTATAGCTAG: 509 a.u.
CTACGCTGTTTTCCGCACGAGGTTTCTCCGGACTTC: 691 a.u.
GAAATATCCTGCACTGACGTGTCACAAGAAAAATAG: 676 a.u.
GAAGCAATTTCCGATCACCTCTCATGCGAATATTAG: 568 a.u.
CTATTTGGTTTTATTCATATGATTCTTCTTTAGTTC: 531 a.u.
GAACTCTTTATTCATCTGACCTAGTATTTATTCTAG: 714 a.u.
CTACTAATCAAATGTATCGTGACTGGGTGTTGCTTC: 1130 a.u.

Set 3
Target: TAR DNA-binding protein 43, full length, His tag (TARDBP, Homo sapiens, UniProt Q13148, residues 1-414)
Technique: RNA Bind-n-Seq
Molecule type: RNA
Matrix: in vitro
Tested at: 20 nM
Setting: 6-mer, flanks averaged, single round
Added: 150 mM KCl
Baseline: input library
Direction: higher = stronger binding
Quantity: 6-mer enrichment (R)
CCGGAG: 1.48
AUCAGU: 0.621
GAGAAG: 1.74
CUAAGG: 0.991
ACCCGA: 0.737
AUGCAG: 0.94
UACACG: 0.696
GUUUAG: 0.835
AAUCCA: 0.589
GAGGCU: 1.42
GAAUGA: 1.18
ACAAUG: 0.735
GUUGGA: 1.22
ACUCUC: 0.568
GACCGG: 1.71
CGGGAU: 1.82
UUGGUU: 0.721
UCUGAC: 0.598
AGAUGC: 0.8
AUGCUA: 0.654
CCGUCG: 0.825
UAUCUG: 0.61
ACCUGU: 0.629
UGAAGG: 1.62
CCUGGC: 0.813

Set 4
Target: CCNE2, cyclin fold, Cln2 fusion (human)
Technique: yeast growth competition, sequencing
Matrix: yeast
Setting: weak parent motif
Baseline: not given
Direction: higher = stronger binding
Quantity: normalised enrichment score
Parent: PKN2 docking peptide (human); DSTVTKLDFDLEP
L7A: -0.497
T5A: -0.223
E12A: -0.199
T3A: 0.0988
D10A: -0.286
F9A: -0.438
S2A: -0.119

Set 5
Target: Histone acetyltransferase KAT6A, winged helix 1, GST fusion (KAT6A, Homo sapiens, UniProt Q92794, residues 1-85)
Technique: protein binding microarray
Molecule type: double-stranded DNA, one strand shown
Matrix: in vitro
Tested at: not given
Setting: 8-mer, flanks averaged, mean of 2 arrays, mostly near background
Baseline: not given
Direction: higher = stronger binding
Quantity: E-score
Construct (chain): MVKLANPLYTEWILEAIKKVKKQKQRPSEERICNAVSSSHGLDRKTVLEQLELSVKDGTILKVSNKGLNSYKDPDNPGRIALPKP
GGACAACA: -0.18
ACCACCAG: -0.293
GCATAACA: -0.192
CTGCTTAA: -0.0289
TCACTACA: -0.192
AGTCTAAG: -0.0692
ATGCGACG: 0.373
CTAATAGA: -0.168
AAATGCCA: -0.177
GCTGAGCC: 0.213
CGTCATGA: 0.0992
CATGGCTA: -0.15
GTTTAGAA: -0.09
ACCCGCGG: 0.433
CCCACGGC: 0.341
AATGCCGG: 0.344
AGCATCCC: -0.0171
GAACGAAC: 0.0571
ATATTCGC: -0.0976
AGCGAATC: 0.0319

A few entries again (set 2):
TGTACGAAGCTATAGGTGGCGATTATAGTAGTTAGG: 504 a.u.
GAATATTCATATTGACACGTAACGCAAAAGAACTAG: 532 a.u.
CTACCCTATACTATTCATGTGAGTGGTAGCATGTTC: 678 a.u.
CCTAACTACTATAGTGACATAATATAGCTTCGTACA: 514 a.u.
GAATTTCAAATCGATGACAGCTGATAGAAAGCGTAG: 628 a.u.
CCTAACTACTATAGCAATGTCACATAGCTTCGTACA: 511 a.u.
GAAACGAAAATCTATCAGCTGAACATCTAGACTTAG: 594 a.u.
GAATTCTGATCCAACTGATGCATCAGTTATAGCTAG: 509 a.u.
CTACGCTGTTTTCCGCACGAGGTTTCTCCGGACTTC: 691 a.u.
GAAATATCCTGCACTGACGTGTCACAAGAAAAATAG: 676 a.u.
GAAGCAATTTCCGATCACCTCTCATGCGAATATTAG: 568 a.u.
CTATTTGGTTTTATTCATATGATTCTTCTTTAGTTC: 531 a.u.
